Published values pooled from the literature.
Each line is one published result; not all experiments were run side by side. ± gives the spread as reported.
Tubulin alpha-1B chain/TUBB2B: Tubulin alpha-1B chain/TUBB2B (Bos taurus, UniProt P81947+Q6B856)
UniProt Q6B856, sequence (whole entry, looked up): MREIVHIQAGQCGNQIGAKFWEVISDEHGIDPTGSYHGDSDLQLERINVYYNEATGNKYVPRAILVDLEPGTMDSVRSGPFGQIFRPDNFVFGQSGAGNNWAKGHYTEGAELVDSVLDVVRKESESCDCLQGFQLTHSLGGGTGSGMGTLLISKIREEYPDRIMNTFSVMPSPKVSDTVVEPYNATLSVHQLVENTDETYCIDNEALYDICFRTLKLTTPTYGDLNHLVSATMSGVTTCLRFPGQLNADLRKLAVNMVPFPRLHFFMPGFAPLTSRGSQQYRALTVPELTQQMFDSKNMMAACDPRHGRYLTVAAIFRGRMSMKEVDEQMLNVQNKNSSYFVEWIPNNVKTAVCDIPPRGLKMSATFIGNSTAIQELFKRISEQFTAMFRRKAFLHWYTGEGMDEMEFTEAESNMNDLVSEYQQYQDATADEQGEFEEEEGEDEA
UniProt P81947, sequence (whole entry, looked up): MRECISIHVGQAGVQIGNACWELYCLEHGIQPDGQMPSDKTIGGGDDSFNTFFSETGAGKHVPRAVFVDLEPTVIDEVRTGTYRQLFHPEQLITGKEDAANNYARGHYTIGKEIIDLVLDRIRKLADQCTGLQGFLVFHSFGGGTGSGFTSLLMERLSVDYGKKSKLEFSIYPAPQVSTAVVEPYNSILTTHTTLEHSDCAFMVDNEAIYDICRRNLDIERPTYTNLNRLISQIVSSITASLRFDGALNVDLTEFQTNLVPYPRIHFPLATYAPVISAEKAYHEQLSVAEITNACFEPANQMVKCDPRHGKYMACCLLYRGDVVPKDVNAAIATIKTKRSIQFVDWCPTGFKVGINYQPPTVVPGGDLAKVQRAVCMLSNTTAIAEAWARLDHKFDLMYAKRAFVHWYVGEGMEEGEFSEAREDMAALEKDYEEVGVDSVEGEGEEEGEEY
Genome polyprotein NS2B-NS3 protease: Genome polyprotein, NS2B-NS3 protease (ZIKV, UniProt A0A024B7W1)
UniProt Q99685, sequence (whole entry, unmodified, looked up): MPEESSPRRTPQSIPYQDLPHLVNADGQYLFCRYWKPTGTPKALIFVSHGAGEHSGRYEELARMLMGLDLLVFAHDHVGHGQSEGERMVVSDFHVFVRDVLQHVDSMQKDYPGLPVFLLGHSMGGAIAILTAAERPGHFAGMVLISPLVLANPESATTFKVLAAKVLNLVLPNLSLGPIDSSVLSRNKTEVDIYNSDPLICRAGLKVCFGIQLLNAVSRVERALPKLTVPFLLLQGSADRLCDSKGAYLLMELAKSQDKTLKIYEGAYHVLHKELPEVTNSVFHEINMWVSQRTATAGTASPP
UniProt P37136, sequence (whole entry, looked up): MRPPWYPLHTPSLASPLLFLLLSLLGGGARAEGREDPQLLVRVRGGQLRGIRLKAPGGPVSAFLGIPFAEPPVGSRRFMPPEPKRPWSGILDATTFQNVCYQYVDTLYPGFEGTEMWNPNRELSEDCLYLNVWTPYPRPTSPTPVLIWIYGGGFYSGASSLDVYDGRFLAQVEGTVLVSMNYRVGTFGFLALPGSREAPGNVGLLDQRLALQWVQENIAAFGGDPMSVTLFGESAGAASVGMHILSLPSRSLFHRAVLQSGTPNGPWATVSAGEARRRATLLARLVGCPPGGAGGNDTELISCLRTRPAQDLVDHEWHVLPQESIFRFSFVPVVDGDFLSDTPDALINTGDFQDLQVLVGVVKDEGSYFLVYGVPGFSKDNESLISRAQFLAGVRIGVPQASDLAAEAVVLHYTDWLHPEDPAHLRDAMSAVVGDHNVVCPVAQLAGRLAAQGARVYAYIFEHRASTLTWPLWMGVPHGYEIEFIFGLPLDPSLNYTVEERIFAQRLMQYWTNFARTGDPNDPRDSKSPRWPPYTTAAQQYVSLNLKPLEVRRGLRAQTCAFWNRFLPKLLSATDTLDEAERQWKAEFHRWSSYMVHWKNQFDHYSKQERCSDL
UniProt Q13224, sequence (whole entry, looked up): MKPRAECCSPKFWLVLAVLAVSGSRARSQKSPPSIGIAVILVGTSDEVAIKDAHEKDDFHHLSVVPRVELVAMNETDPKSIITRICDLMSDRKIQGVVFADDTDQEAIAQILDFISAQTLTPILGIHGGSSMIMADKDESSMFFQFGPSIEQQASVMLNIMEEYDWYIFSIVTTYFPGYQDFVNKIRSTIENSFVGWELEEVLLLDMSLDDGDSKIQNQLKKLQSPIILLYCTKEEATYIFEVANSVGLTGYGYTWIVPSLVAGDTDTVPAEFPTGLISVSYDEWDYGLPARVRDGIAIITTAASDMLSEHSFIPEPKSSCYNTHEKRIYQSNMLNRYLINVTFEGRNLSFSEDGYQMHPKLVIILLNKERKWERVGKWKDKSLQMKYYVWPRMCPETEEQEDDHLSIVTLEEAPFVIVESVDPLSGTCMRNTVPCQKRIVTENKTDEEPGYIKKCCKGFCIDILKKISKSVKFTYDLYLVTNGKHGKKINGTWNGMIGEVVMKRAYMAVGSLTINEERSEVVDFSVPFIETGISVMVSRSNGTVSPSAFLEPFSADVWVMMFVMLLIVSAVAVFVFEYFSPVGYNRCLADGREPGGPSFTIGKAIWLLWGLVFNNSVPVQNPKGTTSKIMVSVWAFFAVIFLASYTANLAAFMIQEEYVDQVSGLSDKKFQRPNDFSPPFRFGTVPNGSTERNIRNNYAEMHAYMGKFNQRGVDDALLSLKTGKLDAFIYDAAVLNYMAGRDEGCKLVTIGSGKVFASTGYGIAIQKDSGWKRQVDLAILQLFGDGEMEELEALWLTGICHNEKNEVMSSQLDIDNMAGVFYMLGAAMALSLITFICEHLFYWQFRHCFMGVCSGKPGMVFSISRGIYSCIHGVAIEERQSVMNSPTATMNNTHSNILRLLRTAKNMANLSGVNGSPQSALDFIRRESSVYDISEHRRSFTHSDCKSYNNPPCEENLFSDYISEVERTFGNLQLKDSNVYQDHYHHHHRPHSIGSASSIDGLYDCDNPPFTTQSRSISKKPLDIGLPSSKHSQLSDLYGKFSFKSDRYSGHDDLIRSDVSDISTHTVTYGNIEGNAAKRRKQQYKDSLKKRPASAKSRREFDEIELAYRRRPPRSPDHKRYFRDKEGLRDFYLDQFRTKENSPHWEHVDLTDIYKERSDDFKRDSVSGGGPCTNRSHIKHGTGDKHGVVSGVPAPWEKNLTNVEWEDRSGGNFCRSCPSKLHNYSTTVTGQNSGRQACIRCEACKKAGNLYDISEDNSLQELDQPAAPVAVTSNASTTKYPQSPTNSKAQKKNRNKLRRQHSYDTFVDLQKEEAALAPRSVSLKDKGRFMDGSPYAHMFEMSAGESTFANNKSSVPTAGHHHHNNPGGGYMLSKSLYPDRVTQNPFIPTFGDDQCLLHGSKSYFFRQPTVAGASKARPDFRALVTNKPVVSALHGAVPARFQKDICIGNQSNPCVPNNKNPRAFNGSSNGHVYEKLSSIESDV
UniProt Q8I6U4, sequence (whole entry, looked up): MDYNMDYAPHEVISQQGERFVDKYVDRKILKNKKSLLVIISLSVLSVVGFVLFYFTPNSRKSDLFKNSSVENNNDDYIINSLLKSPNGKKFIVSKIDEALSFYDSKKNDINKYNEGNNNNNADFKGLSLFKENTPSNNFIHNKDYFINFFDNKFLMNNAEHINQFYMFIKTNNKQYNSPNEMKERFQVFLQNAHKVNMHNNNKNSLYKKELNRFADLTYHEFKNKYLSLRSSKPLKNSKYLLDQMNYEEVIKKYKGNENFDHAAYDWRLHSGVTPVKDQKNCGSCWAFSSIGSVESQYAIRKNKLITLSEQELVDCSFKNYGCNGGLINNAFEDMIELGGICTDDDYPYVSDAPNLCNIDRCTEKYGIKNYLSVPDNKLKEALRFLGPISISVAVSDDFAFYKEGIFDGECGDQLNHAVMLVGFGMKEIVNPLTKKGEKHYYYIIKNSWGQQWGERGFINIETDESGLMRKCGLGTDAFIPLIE
UniProt P63250, sequence (whole entry, looked up): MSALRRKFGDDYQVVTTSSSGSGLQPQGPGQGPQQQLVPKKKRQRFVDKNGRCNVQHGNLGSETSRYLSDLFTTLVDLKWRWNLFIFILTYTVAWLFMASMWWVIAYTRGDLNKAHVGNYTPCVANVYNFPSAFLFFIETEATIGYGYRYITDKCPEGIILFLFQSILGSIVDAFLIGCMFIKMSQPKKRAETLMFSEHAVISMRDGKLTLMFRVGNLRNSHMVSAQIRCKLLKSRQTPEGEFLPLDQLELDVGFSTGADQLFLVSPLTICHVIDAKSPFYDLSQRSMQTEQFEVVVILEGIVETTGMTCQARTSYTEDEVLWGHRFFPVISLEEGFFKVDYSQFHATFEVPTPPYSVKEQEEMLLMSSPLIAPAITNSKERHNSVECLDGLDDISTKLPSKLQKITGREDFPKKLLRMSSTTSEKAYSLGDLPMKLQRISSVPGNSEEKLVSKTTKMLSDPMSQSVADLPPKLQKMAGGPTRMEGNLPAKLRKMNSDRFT
UniProt Q6NS38, sequence (whole entry, looked up): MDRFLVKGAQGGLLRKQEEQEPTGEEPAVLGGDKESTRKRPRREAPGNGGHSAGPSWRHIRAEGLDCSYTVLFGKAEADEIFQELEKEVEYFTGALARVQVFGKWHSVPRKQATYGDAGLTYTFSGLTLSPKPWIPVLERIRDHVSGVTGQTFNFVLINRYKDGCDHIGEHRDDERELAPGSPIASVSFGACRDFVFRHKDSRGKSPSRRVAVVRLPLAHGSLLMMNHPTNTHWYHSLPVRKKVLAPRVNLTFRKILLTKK
UniProt A0A059WYP6, sequence (whole entry, looked up): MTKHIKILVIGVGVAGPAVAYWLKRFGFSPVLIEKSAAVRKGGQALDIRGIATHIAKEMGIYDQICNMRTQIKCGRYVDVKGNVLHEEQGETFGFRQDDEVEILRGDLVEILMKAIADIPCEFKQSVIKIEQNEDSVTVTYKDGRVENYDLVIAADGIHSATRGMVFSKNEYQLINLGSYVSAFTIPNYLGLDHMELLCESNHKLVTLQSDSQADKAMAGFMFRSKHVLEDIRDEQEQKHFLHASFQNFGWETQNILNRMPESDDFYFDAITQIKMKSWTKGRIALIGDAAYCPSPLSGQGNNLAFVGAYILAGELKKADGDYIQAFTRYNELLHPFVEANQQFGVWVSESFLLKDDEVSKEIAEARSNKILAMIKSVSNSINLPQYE

Compound = CCN(c1nc(N)c(C(=O)N=C(N)N)nc1Cl)C(C)C; target = Kcnj5/Kcnj3 (Mus musculus, UniProt P48545+P63250); assay = GIRK channel activity, inhibitor, membrane potential dye fluorescence; system = HL-1; conditions = added: carbachol; IC50 = 1 µM
Compound = C=CC[N+](C)(C)c1ccc(CCC(=O)CCc2ccc([N+](C)(C)CC=C)cc2)cc1; target = Ache (Rattus norvegicus, UniProt P37136); assay = enzyme activity, inhibitor, radiometric; system = rat, aging, heart homogenate; conditions = 15 min, 37 °C; IC50 = 3 µM
Compound = FC(F)(F)C(Cl)Br (stereo not drawn); target = Proton-gated ion channel (glvI, Gloeobacter violaceus, UniProt Q7NDN8); conditions = pH 5.5; IC50 = 70 µM
Compound = CC1(C)CCC(C)(C)c2cc(C(=O)Nc3ccc(C(=O)O)cc3)ccc21; target = DNA topoisomerase 1 (topA, Escherichia coli, UniProt P06612); assay = enzyme activity, inhibitor; IC50 = > 250 µM
Compound = CC[C@H](C)[C@H]1O[C@]2(CC[C@@H]1C)C[C@@H]1C[C@@H](C/C=C(\C)[C@@H](O[C@H]3C[C@H](OC)[C@@H](O[C@H]4C[C@H](OC)[C@@H](O)[C@H](C)O4)[C@H](C)O3)[C@@H](C)/C=C/C=C3\CO[C@@H]4[C@H](O)C(C)=C[C@@H](C(=O)O1)[C@]34O)O2; target = MDH2 (Sus scrofa, UniProt P00346); assay = enzyme activity, inhibitor; IC50 = > 63 µM
Compound = COc1ccc(C[C@H](NC(=O)[C@H](C)NC(=O)CN2CCOCC2)C(=O)N[C@@H](Cc2ccccc2)C(=O)C(=O)Nc2ccccc2)cc1; target = Proteasome component C5/PSMB5, chymotrypsin-like site (Homo sapiens, UniProt P20618+P28074); assay = enzyme activity in cells, inhibitor; IC50 = 0.365 µM
Compound = COc1ccc2c(c1OP(=O)(O)O)CCCC=C2c1cc(C(F)(F)F)cc(C(F)(F)F)c1; target = Tubulin alpha-1B chain/TUBB2B; assay = tubulin polymerization, inhibitor, turbidimetry; conditions = 20 min, 30 °C, added: 10 µM tubulin; IC50 = > 20 µM
Compound = CC1(NCc2ccccc2)CC1; target = Flavin-dependent monooxygenase (tet(50), Unknown prokaryotic organism, UniProt A0A059WYP6); assay = TC oxidation, inhibitor; conditions = blue light, 8 min preincubation; IC50 = 390 ± 30 µM
Compound = CS(=O)(=O)Nc1ccc(OC[C@@H](O)CNCCc2ccc(Cl)c(Cl)c2)cc1; target = Glutamate NMDA receptor; GRIN1/GRIN2B (GRIN1/GRIN2B, Homo sapiens, UniProt Q05586+Q13224); assay = inhibitor, cell-based; IC50 = 0.053 µM
Compound = NCc1ccc(-c2ncc(OCC3CCNCC3)nc2-n2ccnn2)cc1; target = Genome polyprotein NS2B-NS3 protease; assay = inhibitor; system = Zika virus; IC50 = > 10 µM
Compound = CCCCC/C=C\C/C=C\C/C=C\C/C=C\CCCCN1C(=O)C=CC1=O; target = MGLL (Homo sapiens, UniProt Q99685, C208A); assay = enzyme activity, inhibitor; conditions = added: AHMMCE substrate; IC50 = 1.4 µM
Compound = COc1ccc(C[C@H]2NC(=O)/C=C/C[C@@H]([C@H](C)[C@H]3O[C@@H]3c3ccccc3)OC(=O)[C@H](CC(C)C)OC(=O)[C@H](C)CNC2=O)cc1Cl; target = Tubulin alpha-1B chain/TUBB2B; assay = DZA-induced pellet formation, inhibitor; system = bovine; conditions = pH 6.9, 22 °C, added: DZA 10 µM; IC50 = 0.67 µM
Compound = Cn1c(NN=Cc2cc3ccccc3nc2Cl)nc2ccccc21; target = Luciferin 4-monooxygenase (Photinus pyralis, UniProt P08659); assay = enzyme activity, inhibitor; system = purified enzyme; conditions = added: ATP and D-luciferin at Km (10 µM); IC50 = 0.07 ± 0.01 µM
Compound = Cc1ccc2c(c1)C1CN(C)CCC1N2C(=O)CSc1nnnn1-c1ccc(Cl)cc1 (stereo not drawn); target = Tmem97 (Mus musculus, UniProt Q8VD00); assay = ligand displacement, radioligand; conditions = pH 8, cell membranes; IC50 = 1.38 µM
Compound = CCCCCCCCCCCCCCCCCCCCCCCCC(=O)O; target = Gag-Pol polyprotein, reverse transcriptase (gag-pol, Human immunodeficiency virus 1, UniProt P03366); assay = enzyme activity, inhibitor, absorbance; IC50 = > 1000 µM
Compound = O=C1O[C@H]2[C@@H]3OC(=O)c4cc(O)c(O)c(O)c4-c4c(O)c(O)c5oc(=O)c6c(c(O)c(O)c7oc(=O)c4c5c76)-c4c(cc(O)c(O)c4O)C(=O)OC[C@H]3OC(O)[C@@H]2OC(=O)c2cc(O)c(O)c(O)c2-c2c1cc(O)c(O)c2O (mixture of isomers); target = ALKBH2 (Homo sapiens, UniProt Q6NS38); assay = 1-methyladenine repair, inhibitor, HPLC; conditions = 1 h, 37 °C, added: ssDNA 16mer 5 µM; IC50 = 2.5 µM
Compound = Oc1ccc(-c2ccc(Cl)cc2)cc1; target = SULT1E1 (Homo sapiens, UniProt P49888); assay = enzyme activity, inhibitor, radiometric; conditions = pH 7.4; IC50 = 1.3 µM
Compound = CCCC[C@H](NC(=O)[C@@H](NC(=O)[C@H](CCCNC(=N)N)NC(=O)CN)[C@@H](C)O)C(=O)N[C@@H](CCC(N)=O)C(=O)N[C@H](C(=O)N[C@@H](C)C(=O)N[C@@H](CCCNC(=N)N)C(=O)N[C@@H](CCCCN)C(=O)N[C@@H](CO)C(=O)N[C@H](C(=O)NCC(=O)NCC(N)=O)[C@@H](C)O)[C@@H](C)O; target = SETD7 (Homo sapiens, UniProt Q8WTS6); assay = H3K4 peptide methylation, inhibitor, MALDI-TIMS-TOF MS; conditions = 30 min, 37 °C, added: H3K4 peptide 10 µM, SAM 30 µM; IC50 = 18.4 µM
Compound = FC(F)(F)c1cccc(-n2cc(COc3ccnc4cc(Cl)ccc34)nn2)c1; target = FP2A (Plasmodium falciparum, UniProt Q8I6U4); assay = enzyme activity, inhibitor, fluorescence; conditions = pH 5.5, with preincubation; IC50 = 26.6 µM
Compound = NC(=O)CI; target = guanylate kinase (Plasmodium vivax); assay = enzyme activity, inhibitor; IC50 = 36.5 µM
Compound = O=C1NC(=S)NC(=O)C1=Cc1cn(C(=O)c2ccc3ccccc3c2)c2ccc(Cl)cc12; target = DNA polymerase eta (POLH, Homo sapiens, UniProt Q9Y253); assay = enzyme activity, inhibitor, fluorescence; IC50 = 17 µM
Compound = C/C=C1\NC(=O)[C@@H](NC(=O)[C@@H](NC(=O)C/C(=C/Cl)CC)C(C)C)[C@@H](C)OC(=O)[C@H](C(C)C)NC(=O)[C@H](Cc2ccc(O)cc2)N(C)C(=O)[C@H](Cc2ccccc2)N2C(=O)[C@H](CC[C@H]2O)NC1=O; target = CELA1 (Sus scrofa, UniProt P00772); assay = enzyme activity, inhibitor, fluorescence; conditions = pH 7.4; IC50 = 0.00493 µM
Compound = O=C(O)CC1=CC(=O)C(=O)C=C1; target = NADH oxidase rat; assay = enzyme activity, inhibitor; system = lysed rat brain mitochondria; conditions = no preincubation; IC50 = 178 µM
Compound = C[C@@H]1C[C@H]2[C@@H]3CCC4=CC(=O)C=C[C@]4(C)[C@@]3(Cl)[C@@H](O)C[C@]2(C)[C@@]1(OC(=O)c1ccco1)C(=O)CCl; target = ABCC1 (Homo sapiens, UniProt P33527); assay = substrate efflux, inhibitor, flow cytometry; system = ABCC1-overexpressing SupT1-Vin cells; conditions = added: BODIPY-FL-vinblastine 500 nM; IC50 = 1.8 ± 1.1 µM
Compound = NC[C@@H]1O[C@H](O[C@H]2[C@@H](O)[C@H](O[C@@H]3[C@@H](O)[C@H](N)C[C@H](N)[C@H]3O[C@H]3O[C@H](CN)[C@@H](O)[C@H](O)[C@H]3N)O[C@@H]2Cn2cc(-c3cccc(-c4cn(C[C@H]5O[C@@H](O[C@@H]6[C@@H](O)[C@H](N)C[C@H](N)[C@H]6O[C@H]6O[C@H](CN)[C@@H](O)[C@H](O)[C@H]6N)[C@H](O)[C@@H]5O[C@H]5O[C@@H](CN)[C@@H](O)[C@H](O)[C@H]5N)nn4)c3)nn2)[C@H](N)[C@@H](O)[C@@H]1O; target = HIV-1 TAR RNA; assay = Tat peptide binding, FRET competition; conditions = pH 7.4, 25 °C; IC50 = 0.047 ± 0.006 µM
Compound = O=C1C2CC=CCC2C(=O)N1c1n[nH]c(Cc2ccccc2)n1 (stereo not drawn); target = ALPL (Homo sapiens, UniProt P05186); assay = enzyme activity, inhibitor, luminescence; conditions = added: 1 M DEA, 50 µM CDP-star; IC50 = 32.6 ± 3.55 µM
Compound = O=C1OC2(c3cc(Br)c(O)cc3Oc3cc(O)c(Br)cc32)c2ccccc21; target = Dual specificity protein phosphatase 5 (Homo sapiens, UniProt Q16690); assay = phosphatase activity; conditions = 0 min, without DTT, initial velocity, added: pNPP; IC50 = 268 ± 22.7 µM
Compound = NCc1ccc(-c2ccc(NCC3CCNCC3)nc2-c2ccc(-c3ccsc3)cc2)cc1; target = Genome polyprotein NS2B-NS3 protease; assay = inhibitor; system = Zika virus; IC50 = 18.5 µM
Compound = COc1cc2cc(c1Cl)N(C)C(=O)C[C@H](OC(=O)[C@H](C)N(C)C(=O)CCSC)[C@]1(C)O[C@H]1[C@H](C)[C@@H]1C[C@@](O)(NC(=O)O1)[C@H](OC)/C=C/C=C(\C)C2; target = Tubulin beta chain (Bos taurus, UniProt Q6B856); assay = microtubule polymerization, inhibitor, sedimentation; system = bovine microtubule protein 3 mg/mL; conditions = 30 °C, added: GTP 1 mM; IC50 = 4 ± 0.1 µM
Compound = [Cl][Hg][Cl]; target = Aquaporin-1 (Homo sapiens, UniProt P29972); assay = water permeability, inhibitor, calcein dequenching, hypotonic shock; system = CHO overexpressing AQP1; IC50 = 7.53 µM
Compound = O=C(NCCCCCn1ccc2ccc(F)cc21)OC(C(F)(F)F)C(F)(F)F; target = MGLL (Homo sapiens, UniProt Q99685); assay = enzyme activity, inhibitor; IC50 = 3.2 µM
Compound = CC(=O)C(N=Nc1ccc(S(=O)(=O)Nc2ccccn2)cc1)C(=O)Nc1ccc(Cl)cc1 (stereo not drawn); target = Genome polyprotein NS2B-NS3 protease; assay = enzyme activity, inhibitor; system = Zika virus; conditions = pH 8.0, added: 20 µM Pyr-RTKR-AMC; IC50 = > 10 µM
Compound = CCCCCCCCCN1C[C@@H](O)[C@@H](O)[C@@H](O)[C@H](O)[C@@H](O)C1; target = Non-lysosomal glucosylceramidase (Gba2, Rattus norvegicus, UniProt Q5M868); assay = inhibitor; system = Long Evans rat, testis microsomes; conditions = added: 4-methylumbelliferyl glucoside; IC50 = 766 µM
